Experimental data of several laboratories.
Every numbered part comes from another study and shows a few of its results, in no order. Changes are numbered by the printed parent chain.

Block 1
Target: RNA binding protein fox-1 homolog 2, RRM domain, GST-SBP tag (RBFOX2, Homo sapiens, UniProt O43251-10, residues 100-194)
Technique: RNA Bind-n-Seq
Form: RNA
Matrix: in vitro
Concentration: 365 nM
Notes: natural RNA segment, single round, ends assumed
Baseline: no-protein control
Reading: higher = stronger binding
Residues (chain): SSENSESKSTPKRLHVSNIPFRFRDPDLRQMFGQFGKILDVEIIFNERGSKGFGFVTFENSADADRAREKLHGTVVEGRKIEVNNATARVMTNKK
| Oligonucleotide | RBNS enrichment (R) |
| --- | --- |
| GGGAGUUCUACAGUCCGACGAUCUAUUGUAUUUAUUUUAGAAACUGAGAUAUACAUAGCAUGAUUACUUUUACAGAAGAAACUAAAAGACAAAGGAAUAUUAAGCACCUGAGGGGUUUUUGUUUGAUUGAUUGUGGAAUUCUCGGGUGCCAA | 4.4 |
| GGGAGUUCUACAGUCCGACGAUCUCCGGAGAGCACCCCAGCAGCAUCCAGAAGCAGCUGCAGUGUUGCUGCCACCACCCUCCUGUCUGCCUCUUCAAAGUCUCCUGUGACAUUUUUUCUUUGGUCAGAAGCCAUGGAAUUCUCGGGUGCCAA | 0.416 |
| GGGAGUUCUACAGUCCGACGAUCCUUCCUCAGGGACGUACAGGCUGUCUGCUGAGCAGCCCCCACUCUUCUUUAUGGCAACAGGAGGAGAAAGCAAGGCCCAGGAGAGGAGGCCUCCAAGGCAGAAGCUAUUGUGGAAUUCUCGGGUGCCAA | 0.309 |
| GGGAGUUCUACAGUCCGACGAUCCUAUAUGAUUAAAGAAAAUAUGCAUAAUCAGACAAGCUUGAAUAUUGUUUUUGCACCAGACGAACAGUGAGGAAAUUCGGAGCUAUACAUAUGUGCAGAAGGUUACUACCUGGAAUUCUCGGGUGCCAA | 0.751 |
| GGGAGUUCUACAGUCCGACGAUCGGCUACAGCUUUCAGCCACUUACGGCCCCAGCUGGACAGAGCAGUGCUGUGUGGGUACUCCAAGUGCUGACUUAGGAUAUUAAUGUGCUGCAACACAUUUGUCACCAGGCUGGAAUUCUCGGGUGCCAA | 0.38 |
| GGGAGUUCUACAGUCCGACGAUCCUGAAGGAAACAUGACCAUUCUGAGUUUAAAAAAAAGUACAAAUUGCUUCUGAGGCACUAUUUGCCCUAAAAUAUAAUGGGCUUUUGUUUUGAGACUGGGUUUCAUUCUGUGGAAUUCUCGGGUGCCAA | 0.395 |
| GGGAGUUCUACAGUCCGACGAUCCAGACUCACUCAACCUCCAGAGAGAGGAGCCAAGCCUAUGGGAAGUGGGGAGGGACUGCCUGAGGCCGCAGCUGGUGGGCCUCCUGCAUGUACUAGCAUCCGCAUUCCUCUGGAAUUCUCGGGUGCCAA | 23.1 |
| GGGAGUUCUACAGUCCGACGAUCUGUGUGUGUGUACACAUAUCUGUGCCUGUGUGUCUUCCCUUGUGUCCAUAUUUAAUGUGUAAGAACAUCCCUACUCUAUCCCAGACACGACCAUUUCACCCAUUGCCCCAUGGAAUUCUCGGGUGCCAA | 0.742 |
| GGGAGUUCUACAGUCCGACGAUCUCUAUGCUGUUCGUGUUGGGUUUUGUUCAUGUCAGAUACGUGGUUCAUUCUCAGGACCAAGGGAAACUGUCUUGCCUGUCCUCCUAUCUCCUCCCUUUCAGCAUCCUUUGUGGAAUUCUCGGGUGCCAA | 1.17 |
| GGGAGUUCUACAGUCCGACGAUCUCUCCUCAUUGUUCACAGCCUGUUGGUCUCGAACACUCAACAUAUGAUUGCUCGAUCACUUUAGAUAGUAAGUAGGCUAUUUACAUAAUGAGCUAACCUCAGAGAGAAGCUGGAAUUCUCGGGUGCCAA | 0.375 |
| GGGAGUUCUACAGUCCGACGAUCUUUUCAUGUGGCUGGGUGGGUUUUUGCCUUUUUCUCUUGCCCUGUUCCUGGUGCCUUCUGAUGGGGCUGGAAUAGUUGAGGUGGAUGGUUCUACCCUUUCUGCCUUCUGUUGGAAUUCUCGGGUGCCAA | 0.296 |
| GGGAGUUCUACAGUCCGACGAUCUUCUUUCUGGUCCCAUCUUAAACGUCUUCUGUUGUGCUGCACCCCAGAUGGUGUCUCAGAUGCUUUGGGGAAUCUUUAACAGCUGAAUUUGAGUCAGUCCUCUUAGGCUGUGGAAUUCUCGGGUGCCAA | 0.293 |

Block 2
Target: Histone acetyltransferase KAT6A, winged helix 1, GST fusion (KAT6A, Homo sapiens, UniProt Q92794, residues 1-85)
Technique: protein binding microarray
Form: double-stranded DNA, one strand shown
Matrix: in vitro
Concentration: not given
Notes: 8-mer, flanks averaged, mean of 2 arrays, mostly near background
Baseline: not given
Reading: higher = stronger binding
Residues (chain): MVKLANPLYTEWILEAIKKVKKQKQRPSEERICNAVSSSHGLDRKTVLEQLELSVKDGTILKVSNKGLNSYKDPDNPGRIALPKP
| Oligonucleotide | E-score |
| --- | --- |
| CGACCCAC | -0.157 |
| GACGGGCC | 0.418 |
| CATTGTGG | -0.193 |
| CGATCTTA | 0.0745 |
| CGTCACAG | 0.0223 |
| ATTGCAAA | -0.205 |
| AGTATCGG | 0.144 |
| GATTGTCA | -0.05 |
| ACCGGAAA | 0.0987 |
| CCCCTTAA | -0.239 |
| AGTGCGAG | -0.155 |
| ATACGTAC | 0.0129 |
| AGTAGAGA | -0.119 |
| GAAAAGTA | -0.153 |
| AAAATCTC | -0.182 |
| ATTGCTCA | -0.2 |
| ACTTAATG | -0.0976 |
| CGTTGAGA | 0.0983 |
| CTTCCCCC | 0.0175 |
| CCGAAAGC | 0.148 |
| AGAAAATC | -0.102 |
| CTTCTCAC | -0.141 |

Block 3
Target: CCNE2, cyclin fold, Cln2 fusion (human)
Technique: yeast growth competition, sequencing
Matrix: yeast
Notes: strong parent motif
Baseline: not given
Reading: higher = stronger binding
Starting sequence: E2F1 docking peptide (human); PPVKRRLDLETDH; partner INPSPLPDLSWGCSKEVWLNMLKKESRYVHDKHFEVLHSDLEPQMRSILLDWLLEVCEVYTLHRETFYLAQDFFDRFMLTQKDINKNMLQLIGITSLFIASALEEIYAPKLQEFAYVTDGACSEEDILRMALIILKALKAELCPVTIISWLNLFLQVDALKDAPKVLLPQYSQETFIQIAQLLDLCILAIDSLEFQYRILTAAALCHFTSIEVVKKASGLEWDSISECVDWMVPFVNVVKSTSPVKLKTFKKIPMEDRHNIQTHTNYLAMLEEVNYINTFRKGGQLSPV
| Change | normalised enrichment score |
| --- | --- |
| E10Y | 0.83 |
| T11V | 1.4 |
| D12H | 1.68 |
| K4T | -0.242 |
| V3G | -0.364 |
| P2W | 0.931 |
| K4P | -0.236 |
| R6Q | 0.642 |
| T11H | 1.18 |
| D8N | 2.06 |
| E10T | 2.01 |
| D12F | 3.18 |
| D12I | 1.68 |
| H13Y | 1.23 |
| T11M | 0.856 |
| R5A L7A | -0.202 |
| R5M | 0.388 |

Mixed results
| Molecule | target | assay | test system | setting | scale | endpoint | value |
| --- | --- | --- | --- | --- | --- | --- | --- |
| PhoQ, residues 284 288 289 292 302 303 WVSSAF | PhoP, residues 12 14 15 18 19 TQAIL (Escherichia coli, UniProt P23836) | Sort-seq, refers to: YFP reporter | E. coli | PhoQ-PhoP variant library, added: 10 µM Mg2+ | baseline: high Mg2+ state, higher = stronger signaling | fold induction | 9.96 |
